Measured values collected from several papers.
Each numbered part is a random draw from the data of one study; scales do not carry over between parts. ± marks the error that the study gave. Values after ≈ are worked out from the molar mass of the structure shown.

Set 1 — organism: SARS-CoV-2 Wuhan spike VSV pseudovirus; observed: pseudovirus entry; concentration: 10 µM; measurement: inhibition
SMILES = CN(C)c1nc2sc(C(=O)N(Cc3ccco3)C3CC3)cc2s1; value = 95%
SMILES = Cc1noc(C)c1CC(=O)N1CCC(CCC(=O)NCc2cccnc2)CC1; value = 76%
SMILES = CC(C)CN1CC(C(=O)NCCS(=O)(=O)N2CCCC2)CC1=O (stereo not drawn); value = 95%
SMILES = COCc1noc([C@@H]2CC(F)(F)CN2C(=O)c2cc(C)n[nH]2)n1; value = 83%
SMILES = CC(c1cccs1)N(C)C(=O)c1ccc(OC2CCN(Cc3ccccn3)CC2)cc1 (stereo not drawn); value = 79%
SMILES = COc1cccc(OC)c1C(=O)Nc1cc2c(c([N+](=O)[O-])c1C)C(C)(C)CC2(C)C; value = 57%
SMILES = CC(C)C[C@H](NC(=O)[C@H](CCc1ccccc1)NC(=O)CN1CCOCC1)C(=O)N[C@@H](Cc1ccccc1)C(=O)N[C@@H](CC(C)C)C(=O)[C@@]1(C)CO1; value = 82%
SMILES = Cc1cccc2c(-c3ccncn3)c[nH]c12; value = 91%
SMILES = O=C(Cn1ncc(Cl)c(Cl)c1=O)N(C1=CCCCC1)C1CC1; value = 79%
SMILES = Cc1noc(C)c1CN1C[C@@H](CO)[C@H](NC(=O)c2cccnc2)C1; value = 84%
SMILES = Nc1ccc(OC2=C(Cl)C(=O)c3ccccc3C2=O)cc1; value = 96%
SMILES = CN(C)C1(CNC(=O)c2ccc(C#CC(C)(C)O)o2)CCSC1 (stereo not drawn); value = 100%
SMILES = O=S(=O)(O)c1cc(O)c2ccc3c(S(=O)(=O)O)cc(S(=O)(=O)O)c4ccc1c2c34; value = 94%
SMILES = O=C(COc1cccnc1)N1CCCC2(CCNC2)C1 (stereo not drawn); value = 100%
SMILES = CC1=C(O)C(=O)C=C2C1=CC=C1[C@@]2(C)CC[C@@]2(C)[C@@H]3C[C@](C)(C(=O)O)CC[C@]3(C)CC[C@]12C; value = 100%
SMILES = CCCOC1CCCN(C(=O)CCNC(=O)c2ccc(F)cc2)C1 (stereo not drawn); value = 99%
SMILES = Fc1ccc(NC2=NCCCCC2)cc1; value = 66%
SMILES = CCc1nc(-c2ccc(C(=O)NC3CCCCCC3)cc2)cs1; value = 84%
SMILES = CC(C)C[C@@H](C=O)NC(=O)[C@H](CC(C)C)NC(=O)[C@H](CC(C)C)NC(=O)OCc1ccccc1; value = 89%
SMILES = CN1CCN(S(=O)(=O)c2ccc(N3Cc4cc5c(cc4C4(CCCC4)C3)OCCO5)nc2)CC1; value = 100%
SMILES = CC(C)NC(=O)c1cccc(-c2noc(-c3cc4ccccc4[nH]3)n2)c1; value = 65%
SMILES = Cc1cccc(NC(=O)CCC2CCN(C(=O)C3=NN(C)C(=O)CC3)CC2)c1; value = 58%
SMILES = O=C(NCc1ccc2c(c1)OCO2)c1nc(S(=O)(=O)Cc2ccccc2)ncc1Cl; value = 53%
SMILES = COCCc1noc([C@@H]2CN(C3CCCC3)C[C@H]2CO)n1; value = 71%

Further values, each from its own experiment
rep nsp12 RdRp: Replicase polyprotein 1ab, nsp12 RdRp (rep, Severe acute respiratory syndrome coronavirus 2, UniProt P0DTD1)
Matrix protein 2 S31N: Matrix protein 2 (Influenza A virus, UniProt P0DOF5, S31N)
rep papain-like protease: Replicase polyprotein 1ab, papain-like protease (rep, Severe acute respiratory syndrome coronavirus 2, UniProt P0DTD1)
rep nsp14: Replicase polyprotein 1ab, nsp14 (rep, Severe acute respiratory syndrome coronavirus 2, UniProt P0DTD1)
Molecule = CC1(C)CCC(CN2CCN(c3ccc(C(=O)NS(=O)(=O)c4ccc(NCC5CCOCC5)c([N+](=O)[O-])c4)c(Oc4cnc5[nH]ccc5c4)c3)CC2)=C(c2ccc(Cl)cc2)C1; tested on = rep nsp12 RdRp; assay = binding, biolayer interferometry; conditions = concentration not given; measurement = BLI response; value = -0.01 nm
Molecule = CC(C)(C)[C@H](NC(=O)C(F)(F)F)C(=O)N1C[C@H]2[C@@H]([C@H]1C(=O)N[C@H](C#N)C[C@@H]1CCNC1=O)C2(C)C; tested on = SARS-CoV-2; assay = viral replication, replicon; system = A5328V Mpro cleavage-site mutant; measurement = EC50; value = 5 nM
Molecule = NC12CC3CC(CC(C3)O1)C2; tested on = Matrix protein 2 S31N; conditions = concentration not given, pH 5.5, cell-based; measurement = inhibition; value = 0%
Molecule = COc1ccc([C@@H]2CC(=O)c3c(O)cc(O[C@@H]4O[C@H](CO[C@@H]5O[C@@H](C)[C@H](O)[C@@H](O)[C@H]5O)[C@@H](O)[C@H](O)[C@H]4O)cc3O2)cc1O; tested on = rep nsp12 RdRp; assay = binding, biolayer interferometry; conditions = concentration not given; measurement = BLI response; value = 0.01 nm
Molecule = CCc1cc(=O)c2c(OCC(O)CN3CCCCC3)c3ccoc3c(OC)c2o1 (stereo not drawn); tested on = Mycobacterium tuberculosis; assay = Alamar blue; system = 22/22, SIRE and linezolid resistant; conditions = 21 days, 37 °C; measurement = MIC; value = 32 µg/mL
Molecule = COc1nc(N)nc2c1ncn2[C@@H]1O[C@H](CO)[C@@H](O)[C@@H]1O; tested on = SARS-CoV-2; assay = viral replication; system = Vero C1008, Omicron BA.1; conditions = 48 h, reduction of infectious virus; measurement = EC90; value = 6420 ± 190 nM
Molecule = CCc1cc(=O)c2c(O)c3ccoc3c(OC)c2o1; tested on = Mycobacterium tuberculosis; assay = Alamar blue; system = 22/22, SIRE and linezolid resistant; conditions = 21 days, 37 °C; measurement = MIC; value = 128 µg/mL
Molecule = CC(=O)NO; tested on = rep papain-like protease; conditions = concentration not given, C111S mutant; scale = baseline: positive control; measurement = activity; value = 20.4%
Molecule = COc1c(N2C[C@@H]3CCCN[C@@H]3C2)c(F)cc2c(=O)c(C(=O)O)cn(C3CC3)c12; tested on = Mycobacterium tuberculosis; system = H37Rv Pks13 resistant mutants; measurement = MIC; value = 0.13 µM
Molecule = CCN(CC)C12C3CCC4C3C3C(CCC31)C42.Cl; tested on = Matrix protein 2 S31N; conditions = concentration not given, pH 5.5, cell-based; measurement = inhibition; value = 0%
Molecule = Nc1nc2c(ncn2[C@@H]2O[C@H](COP(=O)(O)OP(=O)(O)OP(=O)(O)OC[C@H]3O[C@@H](n4cnc5c(=O)[nH]c(N)nc54)[C@H](O)[C@@H]3O)[C@@H](O)[C@H]2O)c(=O)[nH]1; tested on = rep nsp14; assay = thermal shift; conditions = 250 µM; measurement = ΔTm; value = 0.3 °C
Molecule = CCC(CC)COC(=O)[C@H](C)N[P@](=O)(OC[C@H]1O[C@@](C#N)(c2ccc3c(N)ncnn23)[C@H](O)[C@@H]1O)Oc1ccccc1; tested on = SARS-CoV-2; assay = viral replication; system = Vero, Beta; measurement = EC50; value = 700 ± 600 nM
Molecule = CC[C@H](C)[C@@H]1NC(=O)[C@H](CCC(N)=O)NC(=O)[C@H](CCC(=O)O)NC(=O)[C@H](CCCNC(=N)N)NC(=O)[C@@H]2CCCN2C(=O)[C@H](CCCNC(=N)N)NC(=O)[C@H](CCCNC(=N)N)NC(=O)[C@H](Cc2ccc(O)cc2)NC(=O)CSC[C@@H](C(=O)NCC(N)=O)NC(=O)[C@H](Cc2ccccc2)NC(=O)[C@H](C(C)C)NC(=O)[C@H](Cc2c[nH]c3ccccc23)NC(=O)[C@H](CC(C)C)NC(=O)[C@H](CO)NC(=O)CNC(=O)[C@H]([C@@H](C)CC)NC(=O)[C@H]([C@@H](C)CC)NC1=O; tested on = SARS-CoV-2 spike protein Beta variant; assay = binding; measurement = Kd; value = 60 nM
Molecule = SLVAHTAAQSTIEEQAKTFLDKFN; tested on = SARS-CoV-2 spike RBD; assay = peptide spot array; system = peptide; conditions = concentration not given; scale = baseline: wild-type ACE2 peptide; measurement = relative binding; value = 3.03
Molecule = O=[N+]([O-])c1cn2c(n1)OC[C@@H](OCc1ccc(OC(F)(F)F)cc1)C2; tested on = Mycobacterium tuberculosis; assay = MABA; system = Erdman M3 FbiC P367S mutant; measurement = IC50; value = > 50000 nM
Molecule = CN(C)CCn1c(C(=O)N2CCN(c3ccccc3Cl)CC2)c(C(c2ccc(O)cc2)c2ccc(O)cc2)c2ccccc21; tested on = SARS-CoV-2; assay = viral replication; system = 293T-ACE2, USA-WA1/2020; conditions = 24 h; measurement = EC50; value = 91 nM
Molecule = NCC[C@H](O)C(=O)N[C@@H]1C[C@H](N)[C@@H](O[C@H]2O[C@H](CN)[C@@H](O)[C@H](O)[C@H]2O)[C@H](O)[C@H]1O[C@H]1O[C@H](CO)[C@@H](O)[C@H](N)[C@H]1O; tested on = Mycobacterium tuberculosis; system = H37Rv mc2-6206 MmpL3 L567P; measurement = MIC80; value = 0.85 µM (≈ 0.498 µg/mL)
Molecule = SRVAVTAAQSTIEEQAKTFLDKFN; tested on = SARS-CoV-2 spike RBD; assay = peptide spot array; system = peptide; conditions = concentration not given; scale = baseline: wild-type ACE2 peptide; measurement = relative binding; value = 3.67
Molecule = NNC(=O)c1ccncc1; tested on = Mycobacterium tuberculosis; system = H37Rv Pks13 resistant mutants; measurement = MIC; value = 0.62 µM
Molecule = N#C[C@@]1(n2ccc(N)nc2=O)O[C@H](CO)[C@@H](O)[C@H]1O; tested on = SARS-CoV-2; assay = viral replication; system = Calu-3, Gamma; measurement = EC50; value = 200 ± 100 nM
Molecule = NC1=N[C@@]2(c3cc(NC(=O)c4ccc(F)cn4)ccc3F)COC[C@H]2CS1; tested on = rep papain-like protease; conditions = concentration not given, C111S mutant; scale = baseline: positive control; measurement = activity; value = 21.2%
Molecule = CCC(CC)[C@H](NC(C)=O)[C@@H]1[C@H](O)[C@@H](C(=O)O)C[C@H]1N=C(N)N; tested on = neuraminidase (Influenza B virus, UniProt C0LT34, N294S); measurement = IC50; value = 16.7 ± 3.8 nM
Molecule = CC(C)C(=O)OC[C@H]1O[C@@H](n2ccc(NO)nc2=O)[C@H](O)[C@@H]1O; tested on = SARS-CoV-2; assay = cytopathic effect; system = Vero C1008, Omicron BA.1; conditions = 48 h; measurement = IC100; value = 6.24 µM
Molecule = O=C(NC1CCN(c2ncnc3[nH]cnc23)CC1)c1cccc(S(=O)(=O)N2CCCCC2)c1; tested on = rep nsp14; assay = NSP14 enzyme activity, inhibitor; conditions = 12.5 µM; measurement = inhibition; value = 58.2%

A few entries again (further values, each from its own experiment):
Molecule = SRVAVTAAQSTIEEQAKTFLDKFN; tested on = SARS-CoV-2 spike RBD; assay = peptide spot array; system = peptide; conditions = concentration not given; scale = baseline: wild-type ACE2 peptide; measurement = relative binding; value = 3.67
Molecule = O=[N+]([O-])c1cn2c(n1)OC[C@@H](OCc1ccc(OC(F)(F)F)cc1)C2; tested on = Mycobacterium tuberculosis; assay = MABA; system = Erdman M3 FbiC P367S mutant; measurement = IC50; value = > 50000 nM
Molecule = COc1c(N2C[C@@H]3CCCN[C@@H]3C2)c(F)cc2c(=O)c(C(=O)O)cn(C3CC3)c12; tested on = Mycobacterium tuberculosis; system = H37Rv Pks13 resistant mutants; measurement = MIC; value = 0.13 µM
Molecule = N#C[C@@]1(n2ccc(N)nc2=O)O[C@H](CO)[C@@H](O)[C@H]1O; tested on = SARS-CoV-2; assay = viral replication; system = Calu-3, Gamma; measurement = EC50; value = 200 ± 100 nM
